Experimental data collected from several papers.
Compare with care: the assays were run in different laboratories. ± gives the spread as reported.
GBA2: Beta-glucosidase (GBA2, Homo sapiens, UniProt Q9HCG7)
Chain of UniProt Q9HCG7 (whole entry, looked up): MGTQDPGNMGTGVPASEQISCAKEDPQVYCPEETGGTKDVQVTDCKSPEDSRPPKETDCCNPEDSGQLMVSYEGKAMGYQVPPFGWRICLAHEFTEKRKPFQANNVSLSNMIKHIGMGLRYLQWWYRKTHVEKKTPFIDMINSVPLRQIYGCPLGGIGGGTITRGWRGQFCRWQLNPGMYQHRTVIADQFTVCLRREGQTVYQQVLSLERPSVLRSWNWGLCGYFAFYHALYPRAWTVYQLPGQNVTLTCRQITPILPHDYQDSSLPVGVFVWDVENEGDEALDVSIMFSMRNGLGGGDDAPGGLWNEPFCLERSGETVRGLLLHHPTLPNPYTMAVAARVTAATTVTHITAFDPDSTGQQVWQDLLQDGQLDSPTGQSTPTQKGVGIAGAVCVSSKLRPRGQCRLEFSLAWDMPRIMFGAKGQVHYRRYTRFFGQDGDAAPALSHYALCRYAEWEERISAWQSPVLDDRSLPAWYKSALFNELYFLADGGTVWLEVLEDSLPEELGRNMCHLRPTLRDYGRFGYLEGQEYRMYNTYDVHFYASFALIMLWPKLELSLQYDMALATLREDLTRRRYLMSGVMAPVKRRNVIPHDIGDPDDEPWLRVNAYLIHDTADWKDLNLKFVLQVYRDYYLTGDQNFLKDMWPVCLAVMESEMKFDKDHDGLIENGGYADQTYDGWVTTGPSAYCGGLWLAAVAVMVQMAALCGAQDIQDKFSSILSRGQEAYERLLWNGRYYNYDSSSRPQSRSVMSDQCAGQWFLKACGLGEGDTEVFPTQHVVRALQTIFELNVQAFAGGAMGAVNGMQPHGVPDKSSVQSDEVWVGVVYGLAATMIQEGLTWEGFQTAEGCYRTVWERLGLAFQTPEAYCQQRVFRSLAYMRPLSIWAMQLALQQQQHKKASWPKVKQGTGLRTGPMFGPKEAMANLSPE
Chain of UniProt P03372 (whole entry, looked up): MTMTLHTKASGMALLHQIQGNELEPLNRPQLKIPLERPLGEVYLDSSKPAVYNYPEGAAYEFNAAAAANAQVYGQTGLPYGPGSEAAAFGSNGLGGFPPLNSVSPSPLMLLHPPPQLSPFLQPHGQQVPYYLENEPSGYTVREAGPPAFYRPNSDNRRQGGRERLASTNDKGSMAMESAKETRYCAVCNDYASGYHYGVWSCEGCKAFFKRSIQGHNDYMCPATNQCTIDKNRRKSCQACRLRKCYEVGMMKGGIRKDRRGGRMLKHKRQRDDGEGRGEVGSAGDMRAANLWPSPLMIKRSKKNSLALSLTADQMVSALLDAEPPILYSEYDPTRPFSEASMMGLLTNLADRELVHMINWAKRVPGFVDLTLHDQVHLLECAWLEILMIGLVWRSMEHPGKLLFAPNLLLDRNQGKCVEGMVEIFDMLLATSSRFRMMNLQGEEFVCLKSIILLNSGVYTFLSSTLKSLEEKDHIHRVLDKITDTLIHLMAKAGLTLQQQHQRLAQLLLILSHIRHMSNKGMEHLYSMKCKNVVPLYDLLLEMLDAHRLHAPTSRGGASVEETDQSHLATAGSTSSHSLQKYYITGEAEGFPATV
Chain of UniProt P51957 (whole entry, looked up): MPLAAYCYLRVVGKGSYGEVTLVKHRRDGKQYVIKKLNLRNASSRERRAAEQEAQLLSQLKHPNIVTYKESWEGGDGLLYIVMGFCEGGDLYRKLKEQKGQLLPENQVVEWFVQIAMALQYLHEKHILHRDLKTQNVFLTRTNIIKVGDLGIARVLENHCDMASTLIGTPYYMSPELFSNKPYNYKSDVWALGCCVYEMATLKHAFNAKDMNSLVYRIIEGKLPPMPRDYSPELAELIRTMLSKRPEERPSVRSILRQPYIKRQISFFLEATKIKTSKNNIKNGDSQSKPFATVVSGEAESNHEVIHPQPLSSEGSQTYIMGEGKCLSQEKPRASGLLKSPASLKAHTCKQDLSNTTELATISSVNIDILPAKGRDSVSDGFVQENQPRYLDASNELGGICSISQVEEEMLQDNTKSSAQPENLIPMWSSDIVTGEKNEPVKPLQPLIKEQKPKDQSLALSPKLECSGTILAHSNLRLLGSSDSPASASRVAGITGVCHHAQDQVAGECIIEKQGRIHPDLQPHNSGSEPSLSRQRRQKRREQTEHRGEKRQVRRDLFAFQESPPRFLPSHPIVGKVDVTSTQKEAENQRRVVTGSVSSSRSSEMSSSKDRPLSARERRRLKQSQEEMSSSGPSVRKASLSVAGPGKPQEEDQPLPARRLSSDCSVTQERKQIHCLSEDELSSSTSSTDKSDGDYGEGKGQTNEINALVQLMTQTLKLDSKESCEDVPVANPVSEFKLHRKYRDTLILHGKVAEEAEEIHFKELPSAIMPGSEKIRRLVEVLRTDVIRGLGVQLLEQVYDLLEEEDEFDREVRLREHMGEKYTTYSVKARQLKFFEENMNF
Chain of UniProt Q9SZU7 (whole entry, unmodified, looked up): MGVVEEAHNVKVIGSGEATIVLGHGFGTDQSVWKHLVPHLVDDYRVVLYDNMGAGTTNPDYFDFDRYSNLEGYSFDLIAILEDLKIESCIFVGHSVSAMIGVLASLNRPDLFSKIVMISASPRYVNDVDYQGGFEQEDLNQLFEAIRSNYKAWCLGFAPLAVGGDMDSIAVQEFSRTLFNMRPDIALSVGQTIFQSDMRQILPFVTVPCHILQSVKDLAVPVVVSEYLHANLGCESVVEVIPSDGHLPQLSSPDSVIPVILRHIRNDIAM
Chain of UniProt P08913 (whole entry, looked up): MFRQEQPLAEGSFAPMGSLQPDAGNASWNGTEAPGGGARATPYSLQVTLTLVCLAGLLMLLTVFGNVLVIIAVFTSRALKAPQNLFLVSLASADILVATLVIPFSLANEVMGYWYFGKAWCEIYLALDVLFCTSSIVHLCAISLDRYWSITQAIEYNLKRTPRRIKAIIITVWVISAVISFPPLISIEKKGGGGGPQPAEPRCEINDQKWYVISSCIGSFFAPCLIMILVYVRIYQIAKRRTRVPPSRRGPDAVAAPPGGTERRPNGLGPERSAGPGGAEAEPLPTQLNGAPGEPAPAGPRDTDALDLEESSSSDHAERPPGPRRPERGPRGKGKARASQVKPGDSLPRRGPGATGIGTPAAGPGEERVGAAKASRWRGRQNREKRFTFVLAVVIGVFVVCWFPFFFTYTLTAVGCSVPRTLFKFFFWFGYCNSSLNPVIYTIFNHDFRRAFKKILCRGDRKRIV
Chain of UniProt Q9H093 (whole entry, looked up): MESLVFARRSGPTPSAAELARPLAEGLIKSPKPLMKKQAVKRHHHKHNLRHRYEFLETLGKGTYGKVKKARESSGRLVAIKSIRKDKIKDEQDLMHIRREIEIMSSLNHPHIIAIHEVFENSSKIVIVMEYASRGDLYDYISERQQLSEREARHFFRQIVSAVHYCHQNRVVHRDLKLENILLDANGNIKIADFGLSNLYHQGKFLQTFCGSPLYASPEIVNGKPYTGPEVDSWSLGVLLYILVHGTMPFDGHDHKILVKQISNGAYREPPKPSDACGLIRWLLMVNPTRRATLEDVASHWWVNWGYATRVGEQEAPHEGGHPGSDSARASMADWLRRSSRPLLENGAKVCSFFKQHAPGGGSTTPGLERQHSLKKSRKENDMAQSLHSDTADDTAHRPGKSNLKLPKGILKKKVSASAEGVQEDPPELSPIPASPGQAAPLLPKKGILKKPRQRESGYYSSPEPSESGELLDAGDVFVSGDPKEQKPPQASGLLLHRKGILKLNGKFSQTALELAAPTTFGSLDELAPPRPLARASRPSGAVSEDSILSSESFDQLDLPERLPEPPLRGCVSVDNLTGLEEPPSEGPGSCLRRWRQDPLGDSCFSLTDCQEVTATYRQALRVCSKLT
Chain of UniProt P35625 (whole entry, looked up): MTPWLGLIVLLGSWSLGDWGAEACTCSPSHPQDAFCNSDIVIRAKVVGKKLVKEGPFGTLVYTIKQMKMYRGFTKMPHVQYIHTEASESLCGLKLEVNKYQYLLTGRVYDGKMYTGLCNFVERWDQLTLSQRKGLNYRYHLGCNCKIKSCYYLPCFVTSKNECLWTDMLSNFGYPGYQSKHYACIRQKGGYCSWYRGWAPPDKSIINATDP

The Ki of `Cn1ccc2c(N3CCN(CCCCOc4ccc5c(c4)NC(=O)CC5)CC3)cccc21` is reported as 410 nM (ADRA2A (Homo sapiens, UniProt P08913); ligand displacement, radioligand).
The IC50 of `O=C(Nc1ccc(Cc2ccccc2)cc1)C(C(F)(F)F)C(F)(F)F` is reported as over 100000 nM (Chymotrypsinogen A (Bos taurus, UniProt P00766); enzyme activity, inhibitor, fluorescence).
For `Cc1cccc2c1N(C(=O)n1ccnn1)CC2`, the Kd was 99900 nM (KAI2 (Arabidopsis thaliana, UniProt Q9SZU7, H246F); ITC; H246F mutant, mean).
The Kd of `Cc1c[nH]c2nccc(-c3ccc(C(=O)N[C@@H]4c5c(F)cc(C(F)F)cc5C[C@@H]4O)cn3)c12` is reported as 26 nM (NUAK2 (Homo sapiens, UniProt Q9H093); binding, competition with immobilised ligand).
`OC[C@H]1N[C@H](C/C=C/CCOCC23CC4CC(CC(C4)C2)C3)[C@H](O)[C@@H](O)[C@@H]1O` gave an IC50 of 20 nM (GBA2; inhibitor, 4MU-β-D-glucopyranoside; HEK293T homogenates overexpressing GBA2).
For `CC[C@H]([C@H](CC)c1ccc(O)cc1)[C@@H](C)c1ccc(O)cc1`, the EC50 was 0.00382 nM (Estrogen receptor (ESR1, Homo sapiens, UniProt P03372); reporter gene, luciferase reporter (3xERE); 293T; 24 h).
`CCCCCN1C[C@H](O)[C@@H](O)[C@H](O)[C@@H]1CO` gave an IC50 of 250 nM (GBA2; inhibitor, 4MU-β-D-glucopyranoside; HEK293T homogenates overexpressing GBA2).
For `Cc1nn(-c2cccc(N)c2)c(=O)c2cnc(Nc3ccc(N4CCNCC4)cc3)nc12`, the IC50 was 1300 nM (NEK4 (Homo sapiens, UniProt P51957); enzyme activity, inhibitor).
With `OC[C@H]1[C@@H](O)[C@H](O)[C@@H](O)CN1CCCCCOCC12CC3CC(C1)CC(COCCCCCN1C[C@H](O)[C@@H](O)[C@H](O)[C@@H]1CO)(C3)C2` the IC50 was 13 nM (GBA2; inhibitor, 4MU-β-D-glucopyranoside; HEK293T homogenates overexpressing GBA2).
`CC(=O)N[C@@H]1[C@@H](O[C@@H]2O[C@H](C(=O)O)[C@@H](O[C@@H]3O[C@H](COS(=O)(=O)O)[C@@H](OS(=O)(=O)O)[C@H](O[C@@H]4O[C@H](C(=O)O)[C@@H](O[C@@H]5O[C@H](COS(=O)(=O)O)[C@@H](OS(=O)(=O)O)[C@H](O[C@@H]6O[C@H](C(=O)O)[C@@H](OS(=O)(=O)O)[C@H](OS(=O)(=O)O)[C@H]6OS(=O)(=O)O)[C@H]5NC(C)=O)[C@H](OS(=O)(=O)O)[C@H]4OS(=O)(=O)O)[C@H]3NC(C)=O)[C@H](OS(=O)(=O)O)[C@H]2OS(=O)(=O)O)[C@H](OS(=O)(=O)O)[C@@H](COS(=O)(=O)O)O[C@H]1N=[N+]=[N-]` gave an EC50 of 560 ± 38 nM (Metalloproteinase inhibitor 3 (Homo sapiens, UniProt P35625); fluorescence polarization competition; Metalloproteinase inhibitor 3 67 nM, added: TAMRA-labelled probe).
